Assay results from different studies.
Compare with care: the assays were run in different laboratories. Values joined by “and” are separate records of one study, mostly repeats; a detail may differ.

Structure (SMILES) | test | test system | conditions | half-life
Nc1ccc(-c2nc([C@H]3CCc4cc(-c5cc(Cl)ccc5-n5cnnn5)cc(=O)n43)c(F)[nH]2)c(F)n1 |  | human, plasma | oral, 150 mg, single dose, fasted | 16 h
Cc1nc2cccc(OCC(C)(C)C(=O)NC(C)C)c2c(N)c1C(=O)O |  | male Sprague-Dawley rat, plasma | oral gavage, 100 mg/kg, day 1 | 0.71 h
CNCc1ccc(-c2[nH]c3cc(F)cc4c3c2CCNC4=O)cc1 |  | human, plasma | oral, 40 mg once daily, steady state, mean | 9.23 h
COc1cccc(-c2ccc(NC(=O)C3=C(C(=O)O)CCC3)c(F)c2)c1 |  | male human, plasma | oral, 40 mg, multiple doses, once daily | 28.6 h
CCCOc1ccc([C@H]2CNC(=O)N2c2ccc3[nH]cnc3c2)cc1 |  | human, plasma | oral, 30 mg, single dose, fasted | 2.3 h
C[C@@H]1CCC[C@H](n2cnc(-c3cc(Cl)ccc3-n3cc(Cl)nn3)cc2=O)c2cc(ccn2)-c2c(cnn2C(F)F)NC1=O |  | human, plasma | oral, 60 mg, single dose, fasted, healthy volunteers | 9.9 h
C#C[C@]1(CO)O[C@@H](n2cnc3c(N)nc(F)nc32)C[C@@H]1O |  | human, plasma | oral, 15 mg, single dose, fasted, healthy volunteers | 51.4 h
CCCC[C@H](NC(C)=O)C(=O)N[C@H]1CCC(=O)NC[C@@H](C(=O)N[C@@H](Cc2c[nH]c3ccccc23)C(N)=O)NC(=O)[C@H](CCCNC(=N)N)NC(=O)[C@@H](Cc2ccccc2)NC(=O)[C@H](Cc2c[nH]cn2)NC1=O |  | male Sprague-Dawley rat, plasma | subcutaneous, 5 mg/kg, multiple doses, once daily | 8.78 h
Cn1c(-c2ccc(C(N)=O)cc2F)nnc1C(C)(C)Oc1c(F)cc(Cl)cc1F |  | elderly non-Japanese subjects, plasma | oral, 20 mg single dose, day 1, mean | 15.9 h
Cn1nnc2c(C(N)=O)ncn2c1=O | microdialysis | male athymic rat, intracranial U87 glioma, tumour extracellular fluid | oral, 50 mg/kg, before cediranib, recovery-corrected | 1.4 h and 1.6 h and 2.2 h
CCN1CCN(c2ccc(Nc3cc(N(C)C(=O)Nc4c(Cl)c(OC)cc(OC)c4Cl)ncn3)cc2)CC1 | LC-MS/MS | juvenile male Crl:WI(Han) rats, plasma | oral gavage, 1.0 mg/kg/day, postnatal day 17 | 3.67 h
Cc1cc(C(=O)NC(C)(C)COc2cccc3c2C(N)=NS(=O)(=O)N3)cc(C)n1 |  | male Sprague-Dawley rat, plasma | oral, 100 mg/kg, single dose | 0.842 h
Oc1ccc(C(c2ccc(O)cc2)(C(F)(F)F)C(F)(F)F)cc1 |  | female rat, plasma | oral, 110 mg/kg, single dose | 12.8 h
CC(C)(c1ccc(O)cc1)c1ccc(O)cc1 | GC-MS | exposure tank water with snails, charcoal-filtered tap water | 50 ng/L nominal, 22 °C | 1.06 h

Repeated from above:
Structure (SMILES) | test | test system | conditions | half-life
C#C[C@]1(CO)O[C@@H](n2cnc3c(N)nc(F)nc32)C[C@@H]1O |  | human, plasma | oral, 15 mg, single dose, fasted, healthy volunteers | 51.4 h
